Experimental data of several laboratories.
Each line is one published result; not all experiments were run side by side. ± marks the error that the study gave.
NMUR1: Neuromedin-U receptor 1 (NMUR1, Homo sapiens, UniProt Q9HB89)
AGTR1: Type-1 angiotensin II receptor (AGTR1, Homo sapiens, UniProt P30556)
GLP1R: Glucagon-like peptide 1 receptor (GLP1R, Homo sapiens, UniProt P43220)
GIPR: Gastric inhibitory polypeptide receptor (GIPR, Homo sapiens, UniProt P48546)
Napepld: N-acyl-phosphatidylethanolamine-hydrolyzing phospholipase D (Napepld, Mus musculus, UniProt Q8BH82)
NMUR2: Neuromedin-U receptor 2 (NMUR2, Homo sapiens, UniProt Q9GZQ4)

Structure (SMILES)	target	test	system	setting	how to read	Emax
CC(C)C[C@H](NC(=O)[C@H](Cc1ccccc1)NC(=O)CCCCCNC(=O)[C@@H](N)CS)C(=O)N[C@@H](Cc1ccccc1)C(=O)N[C@@H](CCCNC(=N)N)C(=O)N1Cc2ccccc2C[C@H]1C(=O)N[C@@H](CCCNC(=N)N)C(=O)N[C@@H](CC(N)=O)C(=O)NCCCCCC(=O)N[C@@H](CS)C(N)=O	NMUR1	calcium signalling, agonist	HEK293 expressing receptor	10 µM	reference: human NmU	61 ± 12.7%
CCSC[C@H](NC(=O)[C@H](Cc1ccc(O)cc1)NC(=O)[C@@H](NC(=O)[C@H](CCCNC(=N)N)NC(=O)CNC)C(C)C)C(=O)N[C@@H](Cc1c[nH]cn1)C(=O)N1CCC[C@H]1C(=O)N[C@@H](CC(C)C)C(=O)O	AGTR1	β-arrestin recruitment, agonist	CHO			82%
COc1ccccc1-c1cc(C(F)(F)F)nc(S(=O)(=O)CCCC(=O)Nc2ccc(F)cc2F)n1	GLP1R	cAMP accumulation, positive allosteric modulator	HEK-293T overexpressing GLP1R	with: EC20 GLP-1		62 ± 43%
COc1ccc(C(=O)c2c(C(=O)NCCCN(C)C)oc3ccc(Cl)cc3c2=O)cc1OC	GHSR (Homo sapiens, UniProt Q92847, A204E)	β-arrestin 2 recruitment, agonist, NanoBiT	HEK293T	no saturation reached		~35%
Cn1ccc2c(N3CCN(CCCCOc4ccc5c(c4)NC(=O)CC5)CC3)cccc21	DRD2 (Homo sapiens, UniProt P14416, S193A)	Gi/o cAMP inhibition, agonist, GloSensor			reference: quinpirole	67%
CCCCSC[C@H](NC(=O)[C@H](Cc1ccc(O)cc1)NC(=O)[C@@H](NC(=O)[C@H](CCCNC(=N)N)NC(=O)CNC)C(C)C)C(=O)N[C@@H](Cc1c[nH]cn1)C(=O)N1CCC[C@H]1C(=O)N[C@@H](CC(C)C)C(=O)O	AGTR1	β-arrestin recruitment, agonist	CHO			83%
CC[C@H](C)[C@H](NC(=O)[C@H](CO)NC(=O)[C@H](Cc1ccc(O)cc1)NC(=O)[C@H](CC(=O)O)NC(=O)[C@H](CO)NC(=O)[C@@H](NC(=O)[C@H](Cc1ccccc1)NC(=O)[C@@H](NC(=O)CNC(=O)[C@@H]1CCCN1C(=O)[C@H](C)NC(=O)[C@@H](N)Cc1ccc(O)cc1)[C@@H](C)O)[C@@H](C)CC)C(=O)N[C@@H](C)C(=O)N[C@@H](CCSC)C(=O)N[C@@H](CC(=O)O)C(=O)N[C@@H](CCCCN)C(=O)N[C@H](C(=O)N[C@@H](CCCNC(=N)N)C(=O)N[C@@H](CCC(N)=O)C(=O)N[C@@H](CCC(N)=O)C(=O)N[C@@H](CC(=O)O)C(=O)N[C@@H](Cc1ccccc1)C(=O)N[C@H](C(=O)N[C@@H](CC(N)=O)C(=O)N[C@@H](Cc1c[nH]c2ccccc12)C(=O)N[C@@H](CC(C)C)C(=O)N[C@@H](CC(C)C)C(=O)N[C@@H](C)C(=O)N[C@@H](CCC(N)=O)C(=O)N[C@@H](CCCNC(=N)N)C(=O)NCC(=O)N[C@@H](CCCCN)C(=O)N[C@@H](CCCCN)C(=O)N[C@@H](CO)C(=O)N[C@@H](CC(=O)O)C(=O)N[C@@H](Cc1c[nH]c2ccccc12)C(=O)N[C@@H](CCCCN)C(=O)N[C@@H](Cc1c[nH]cn1)C(=O)N[C@@H](CC(N)=O)C(=O)N[C@H](C(=O)N[C@H](C(=O)N[C@@H](CCC(N)=O)C(=O)O)[C@@H](C)O)[C@@H](C)CC)C(C)C)[C@@H](C)CC	GIPR	cAMP, agonist	COS-7			67%
COc1ccccc1-c1cc(C(F)(F)F)nc(S(=O)(=O)CCCC(=O)Nc2ccn(Cc3ccc(C)cc3)n2)n1	GLP1R	cAMP, agonist				32%
Cc1cc(F)ccc1S(=O)(=O)N1CCC(C(=O)Nc2nc3ccccc3s2)CC1	Napepld	enzyme activity, activator, fluorescence, PED-A1 substrate			reference: vehicle	< 1.2 fold
CCCCCCCCCCCCCCCCSCc1cc2cc(c1)CSC[C@H](N)C(=O)NCCCCCC(=O)N[C@@H](Cc1ccccc1)C(=O)N[C@@H](CC(C)C)C(=O)N[C@@H](Cc1ccccc1)C(=O)N[C@@H](CCCNC(=N)N)C(=O)N1CCC[C@H]1C(=O)N[C@@H](CCCNC(=N)N)C(=O)N[C@@H](CC(N)=O)C(=O)NCCCCCC(=O)N[C@H](C(N)=O)CSC2	NMUR2	calcium signalling	HEK293		reference: human neuromedin U	53.1 ± 0.3%
COc1ccc(-c2cc(C(F)(F)F)nc(S(=O)(=O)CCCC(=O)Nc3ccc(F)cc3F)n2)cc1OC	GLP1R	cAMP, agonist				77%
CCCSC[C@H](NC(=O)[C@H](Cc1ccc(O)cc1)NC(=O)[C@@H](NC(=O)[C@H](CCCNC(=N)N)NC(=O)CNC)C(C)C)C(=O)N[C@@H](Cc1c[nH]cn1)C(=O)N1CCC[C@H]1C(=O)N[C@@H](CC(C)C)C(=O)O	AGTR1	β-arrestin recruitment, agonist	CHO			83%
COc1cc(Cl)ccc1NC(=O)CCCS(=O)(=O)c1nc(-c2ccc(OC)c(OC)c2)cc(C(F)(F)F)n1	GLP1R	cAMP accumulation, positive allosteric modulator	HEK-293T overexpressing GLP1R	with: EC20 GLP-1		64 ± 30%
CSCC[C@H](NC(=O)[C@H](Cc1ccc(O)cc1)NC(=O)[C@@H](NC(=O)[C@H](CCCNC(=N)N)NC(=O)[C@@H](N)CC(=O)O)C(C)C)C(=O)N[C@@H](Cc1c[nH]cn1)C(=O)N1CCC[C@H]1C(=O)N[C@@H](CC(C)C)C(=O)O	AGTR1	β-arrestin recruitment, agonist	CHO			73%
COc1ccc(CNc2nc(-c3ccc(OC)cc3)cc(C(F)(F)F)n2)cc1	GLP1R	cAMP accumulation, positive allosteric modulator	HEK-293T overexpressing GLP1R	with: EC20 GLP-1		31 ± 9.2%
Cc1ccc(C)c2sc(NC(=O)C3CCN(S(=O)(=O)c4ccc(F)cc4)CC3)nc12	Napepld	enzyme activity, activator	RAW264.7	with: PED-A1 substrate	reference: vehicle	2.2 fold
CCCCCCCCCCCCCCCCSCc1cc2cc(c1)CSC[C@H](N)C(=O)NCCCCCC(=O)N[C@@H](Cc1ccccc1)C(=O)N[C@@H](CC(C)C)C(=O)N[C@@H](Cc1ccccc1)C(=O)N[C@@H](CCCNC(=N)N)C(=O)N1Cc3ccccc3C[C@H]1C(=O)N[C@@H](CCCNC(=N)N)C(=O)N[C@@H](CC(N)=O)C(=O)NCCCCCC(=O)N[C@H](C(N)=O)CSC2	NMUR1	calcium signalling, agonist	HEK293 expressing receptor	10 µM	reference: human NmU	134 ± 22%
COc1ccc(-c2cc(C(F)(F)F)nc(SCC(=O)N(C)c3ccccc3)n2)cc1OC	GLP1R	cAMP accumulation, positive allosteric modulator	HEK-293T overexpressing GLP1R	with: EC20 GLP-1		32 ± 1.3%
CCCn1ccc2c(N3CCN(CCCCOc4ccc5c(c4)NC(=O)CC5)CC3)cccc21	DRD2 (Homo sapiens, UniProt P14416)	β-arrestin recruitment, agonist				32%
O=C(CNC(=O)c1ccc(O)c(-c2ccc(Cl)c(Cl)c2)c1)NCCc1ccc(Cl)c(Cl)c1	GPR132 (Homo sapiens, UniProt Q9UNW8)	β-arrestin recruitment, agonist				100%
CCCCCCCCCCCCCCCCN(CCCCCCCCCCCCCCCC)CCCCCC(=O)NC(C)(C)C(=O)N[C@@H](Cc1ccccc1)C(=O)N[C@@H](CC(C)C)C(=O)N[C@@H](Cc1ccccc1)C(=O)N[C@@H](CCCNC(=N)N)C(=O)N1CCC[C@H]1C(=O)N[C@@H](CCCNC(=N)N)C(=O)N[C@@H](CC(N)=O)C(N)=O	NMUR2	calcium signaling, agonist	HEK293 expressing NMUR2	30 µM	reference: human neuromedin U max	28.4 ± 4.3%
CC[C@H](C)[C@H](NC(=O)[C@H](CO)NC(=O)[C@H](Cc1ccc(O)cc1)NC(=O)[C@H](CC(=O)O)NC(=O)[C@H](CO)NC(=O)[C@@H](NC(=O)[C@H](Cc1ccccc1)NC(=O)[C@@H](NC(=O)CNC(=O)[C@H](CCC(=O)O)NC(=O)[C@H](C)NC(=O)[C@@H](N)Cc1ccc(O)cc1)[C@@H](C)O)[C@@H](C)CC)C(=O)N[C@@H](C)C(=O)N[C@@H](CCSC)C(=O)N[C@@H](CC(=O)O)C(=O)N[C@@H](CCCCN)C(=O)N[C@H](C(=O)N[C@@H](CCCNC(=N)N)C(=O)N[C@@H](CCC(N)=O)C(=O)N[C@@H](CCC(N)=O)C(=O)N[C@@H](CC(=O)O)C(=O)N[C@@H](Cc1ccccc1)C(=O)N[C@H](C(=O)N[C@@H](CC(N)=O)C(=O)N[C@@H](Cc1c[nH]c2ccccc12)C(=O)N[C@@H](CC(C)C)C(=O)N[C@@H](CC(C)C)C(=O)N[C@@H](C)C(=O)N[C@@H](CCC(N)=O)C(=O)N[C@@H](CCCNC(=N)N)C(=O)NCC(=O)N[C@@H](CCCCN)C(=O)N[C@@H](CCCCN)C(=O)N[C@@H](CO)C(=O)N[C@@H](CC(=O)O)C(=O)N[C@@H](Cc1c[nH]c2ccccc12)C(=O)N[C@@H](CCCCN)C(=O)N[C@@H](Cc1c[nH]cn1)C(=O)N[C@@H](CC(N)=O)C(=O)N[C@H](C(=O)N[C@H](C(=O)N[C@@H](CCC(N)=O)C(=O)O)[C@@H](C)O)[C@@H](C)CC)C(C)C)[C@@H](C)CC	GIPR	cAMP, agonist	COS-7			99%
C[C@@H]1CN(c2ccnc(C(=O)N[C@H]3C[C@@H]3c3ccccc3)c2)CC[C@@H]1O	SLC6A8 (Homo sapiens, UniProt P48029, P544L)	creatine transport	U-2 OS P544L knock-in	pulse dosing		> 1.5 fold
COc1ccc(-c2cc(C(F)(F)F)nc(S(=O)(=O)CCCC(=O)Nc3ccc(F)c(Cl)c3)n2)cc1OC	GLP1R	cAMP, agonist				46%
Cc1cc(C)c2sc(NC(=O)C3CCN(S(=O)(=O)c4ccc(F)cc4)CC3)nc2c1	Napepld	enzyme activity, activator, fluorescence, PED-A1 substrate			reference: vehicle	> 2 fold
COc1ccc(-c2cc(C(F)(F)F)nc(S(=O)(=O)CCCC(=O)Nc3ccccc3F)n2)cc1OC	GLP1R	cAMP, agonist				61%
CC[C@H](C)[C@H](NC(=O)[C@H](CO)NC(=O)[C@H](Cc1ccc(O)cc1)NC(=O)[C@H](CC(=O)O)NC(=O)[C@H](CO)NC(=O)[C@@H](NC(=O)[C@H](Cc1ccccc1)NC(=O)[C@@H](NC(=O)CNC(=O)[C@@H]1CCCN1C(=O)[C@H](C)NC(=O)[C@@H](N)Cc1ccc(O)cc1)[C@@H](C)O)[C@@H](C)CC)C(=O)N[C@@H](C)C(=O)N[C@@H](CCSC)C(=O)N[C@@H](CC(=O)O)C(=O)N[C@@H](CCCCN)C(=O)N[C@H](C(=O)N[C@@H](Cc1c[nH]cn1)C(=O)N[C@@H](CCC(N)=O)C(=O)N[C@@H](CCC(N)=O)C(=O)N[C@@H](CC(=O)O)C(=O)N[C@@H](Cc1ccccc1)C(=O)N[C@H](C(=O)N[C@@H](CC(N)=O)C(=O)N[C@@H](Cc1c[nH]c2ccccc12)C(=O)N[C@@H](CC(C)C)C(=O)N[C@@H](CC(C)C)C(=O)N[C@@H](C)C(=O)N[C@@H](CCC(N)=O)C(=O)N[C@@H](CCCCN)C(=O)NCC(=O)N[C@@H](CCCCN)C(=O)N[C@@H](CCCCN)C(=O)N[C@@H](CC(N)=O)C(=O)N[C@@H](CC(=O)O)C(=O)N[C@@H](Cc1c[nH]c2ccccc12)C(=O)N[C@@H](CCCCN)C(=O)N[C@@H](Cc1c[nH]cn1)C(=O)N[C@@H](CC(N)=O)C(=O)N[C@H](C(=O)N[C@H](C(=O)N[C@@H](CCC(N)=O)C(=O)O)[C@@H](C)O)[C@@H](C)CC)C(C)C)[C@@H](C)CC	GIPR	cAMP, agonist	COS-7			90%

For quick reference, copied from above:
Structure (SMILES)	target	test	system	setting	how to read	Emax
CSCC[C@H](NC(=O)[C@H](Cc1ccc(O)cc1)NC(=O)[C@@H](NC(=O)[C@H](CCCNC(=N)N)NC(=O)[C@@H](N)CC(=O)O)C(C)C)C(=O)N[C@@H](Cc1c[nH]cn1)C(=O)N1CCC[C@H]1C(=O)N[C@@H](CC(C)C)C(=O)O	AGTR1	β-arrestin recruitment, agonist	CHO			73%
COc1ccc(CNc2nc(-c3ccc(OC)cc3)cc(C(F)(F)F)n2)cc1	GLP1R	cAMP accumulation, positive allosteric modulator	HEK-293T overexpressing GLP1R	with: EC20 GLP-1		31 ± 9.2%
Cc1ccc(C)c2sc(NC(=O)C3CCN(S(=O)(=O)c4ccc(F)cc4)CC3)nc12	Napepld	enzyme activity, activator	RAW264.7	with: PED-A1 substrate	reference: vehicle	2.2 fold
